Experimental data pooled from the literature.
Every numbered part comes from another study and shows a few of its results, in no order.
UniProt Q9P2K8, sequence (whole entry, unmodified, looked up): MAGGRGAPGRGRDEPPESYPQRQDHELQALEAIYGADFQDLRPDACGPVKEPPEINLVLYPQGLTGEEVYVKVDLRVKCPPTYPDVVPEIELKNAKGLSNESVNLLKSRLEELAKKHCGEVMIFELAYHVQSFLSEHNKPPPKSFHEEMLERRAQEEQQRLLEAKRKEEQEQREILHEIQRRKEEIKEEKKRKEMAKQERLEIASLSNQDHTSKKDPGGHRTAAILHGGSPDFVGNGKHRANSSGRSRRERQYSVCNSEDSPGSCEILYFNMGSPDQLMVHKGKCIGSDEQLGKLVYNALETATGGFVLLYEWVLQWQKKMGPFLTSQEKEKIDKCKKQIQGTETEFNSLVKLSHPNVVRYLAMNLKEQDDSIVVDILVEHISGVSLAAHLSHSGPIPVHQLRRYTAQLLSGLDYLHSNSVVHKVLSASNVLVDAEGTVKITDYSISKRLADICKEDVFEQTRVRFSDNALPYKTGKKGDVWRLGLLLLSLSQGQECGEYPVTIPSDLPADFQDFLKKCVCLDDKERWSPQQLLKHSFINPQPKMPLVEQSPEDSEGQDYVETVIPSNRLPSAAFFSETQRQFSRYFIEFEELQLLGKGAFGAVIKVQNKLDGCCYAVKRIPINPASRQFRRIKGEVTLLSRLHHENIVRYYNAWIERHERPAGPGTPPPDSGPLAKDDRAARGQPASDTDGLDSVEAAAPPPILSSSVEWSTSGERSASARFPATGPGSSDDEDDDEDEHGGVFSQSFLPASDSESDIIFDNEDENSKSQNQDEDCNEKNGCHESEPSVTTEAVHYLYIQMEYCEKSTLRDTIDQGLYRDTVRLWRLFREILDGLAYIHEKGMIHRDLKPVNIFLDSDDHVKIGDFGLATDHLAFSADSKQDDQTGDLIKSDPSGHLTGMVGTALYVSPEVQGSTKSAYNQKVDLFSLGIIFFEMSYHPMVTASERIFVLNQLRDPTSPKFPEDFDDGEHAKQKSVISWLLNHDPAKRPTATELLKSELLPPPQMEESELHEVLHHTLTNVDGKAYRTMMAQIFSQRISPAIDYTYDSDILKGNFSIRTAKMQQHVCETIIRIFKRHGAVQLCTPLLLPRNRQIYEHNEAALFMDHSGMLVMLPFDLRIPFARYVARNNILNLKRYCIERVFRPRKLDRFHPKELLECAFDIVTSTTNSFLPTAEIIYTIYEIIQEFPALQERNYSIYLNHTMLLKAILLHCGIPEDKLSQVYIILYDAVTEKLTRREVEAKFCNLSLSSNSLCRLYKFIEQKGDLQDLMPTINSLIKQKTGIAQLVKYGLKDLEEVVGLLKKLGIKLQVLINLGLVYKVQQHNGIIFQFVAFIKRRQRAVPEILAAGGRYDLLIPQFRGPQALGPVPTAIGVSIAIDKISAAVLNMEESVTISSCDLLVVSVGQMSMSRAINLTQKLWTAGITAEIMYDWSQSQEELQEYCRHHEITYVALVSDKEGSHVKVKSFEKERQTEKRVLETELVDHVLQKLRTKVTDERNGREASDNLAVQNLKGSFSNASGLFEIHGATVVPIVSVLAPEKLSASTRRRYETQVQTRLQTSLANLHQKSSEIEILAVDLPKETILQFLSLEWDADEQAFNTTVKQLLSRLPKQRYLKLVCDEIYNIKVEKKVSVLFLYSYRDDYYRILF
UniProt P53355, sequence (whole entry, looked up): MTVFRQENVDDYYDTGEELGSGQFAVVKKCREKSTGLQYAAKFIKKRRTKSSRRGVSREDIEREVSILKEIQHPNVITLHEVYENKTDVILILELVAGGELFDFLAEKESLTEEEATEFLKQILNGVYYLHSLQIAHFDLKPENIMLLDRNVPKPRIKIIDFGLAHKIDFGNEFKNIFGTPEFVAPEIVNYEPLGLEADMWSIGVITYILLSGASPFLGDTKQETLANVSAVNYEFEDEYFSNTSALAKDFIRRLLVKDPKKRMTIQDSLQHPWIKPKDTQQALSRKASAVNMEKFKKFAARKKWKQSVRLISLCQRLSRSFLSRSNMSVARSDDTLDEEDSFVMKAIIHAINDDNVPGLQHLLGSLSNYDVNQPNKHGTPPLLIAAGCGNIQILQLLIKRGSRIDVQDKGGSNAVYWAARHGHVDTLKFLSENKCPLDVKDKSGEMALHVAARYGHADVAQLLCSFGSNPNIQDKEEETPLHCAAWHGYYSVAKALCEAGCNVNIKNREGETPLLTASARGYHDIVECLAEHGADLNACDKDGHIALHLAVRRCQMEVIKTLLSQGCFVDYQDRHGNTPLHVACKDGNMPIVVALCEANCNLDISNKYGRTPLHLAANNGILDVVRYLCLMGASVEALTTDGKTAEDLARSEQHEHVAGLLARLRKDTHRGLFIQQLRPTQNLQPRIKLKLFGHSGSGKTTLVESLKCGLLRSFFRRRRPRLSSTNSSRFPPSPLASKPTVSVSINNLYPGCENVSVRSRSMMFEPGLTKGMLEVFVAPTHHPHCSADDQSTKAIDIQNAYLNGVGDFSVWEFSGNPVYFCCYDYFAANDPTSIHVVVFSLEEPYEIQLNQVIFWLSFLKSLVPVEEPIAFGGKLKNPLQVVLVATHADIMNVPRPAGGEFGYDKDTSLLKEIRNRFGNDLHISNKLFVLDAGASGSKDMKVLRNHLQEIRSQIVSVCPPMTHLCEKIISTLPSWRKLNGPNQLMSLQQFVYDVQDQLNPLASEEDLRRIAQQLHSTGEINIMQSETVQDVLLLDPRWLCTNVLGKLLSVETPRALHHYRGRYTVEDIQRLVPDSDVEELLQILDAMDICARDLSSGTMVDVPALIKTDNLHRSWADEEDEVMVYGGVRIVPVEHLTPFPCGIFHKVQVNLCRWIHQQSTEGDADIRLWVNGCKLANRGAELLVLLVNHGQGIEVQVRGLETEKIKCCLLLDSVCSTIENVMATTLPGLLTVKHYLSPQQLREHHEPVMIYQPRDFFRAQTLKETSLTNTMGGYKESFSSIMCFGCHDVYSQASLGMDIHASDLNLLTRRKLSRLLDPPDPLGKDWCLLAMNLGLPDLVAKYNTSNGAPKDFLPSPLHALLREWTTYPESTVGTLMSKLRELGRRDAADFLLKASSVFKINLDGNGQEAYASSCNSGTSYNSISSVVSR
UniProt Q8TDR2, sequence (whole entry, looked up): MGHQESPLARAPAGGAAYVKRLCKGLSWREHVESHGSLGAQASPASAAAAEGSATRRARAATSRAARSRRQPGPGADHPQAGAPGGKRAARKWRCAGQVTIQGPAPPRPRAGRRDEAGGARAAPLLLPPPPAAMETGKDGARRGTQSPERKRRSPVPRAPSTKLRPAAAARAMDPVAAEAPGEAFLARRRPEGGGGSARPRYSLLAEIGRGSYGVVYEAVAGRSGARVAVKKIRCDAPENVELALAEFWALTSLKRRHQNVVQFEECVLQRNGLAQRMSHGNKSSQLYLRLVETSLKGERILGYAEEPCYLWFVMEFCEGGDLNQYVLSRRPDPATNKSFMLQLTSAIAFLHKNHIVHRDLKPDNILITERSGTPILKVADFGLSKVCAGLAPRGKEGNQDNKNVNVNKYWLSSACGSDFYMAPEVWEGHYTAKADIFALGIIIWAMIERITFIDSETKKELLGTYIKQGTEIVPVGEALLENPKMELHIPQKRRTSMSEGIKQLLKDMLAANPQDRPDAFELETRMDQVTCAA
UniProt Q9Y6M4, sequence (whole entry, looked up): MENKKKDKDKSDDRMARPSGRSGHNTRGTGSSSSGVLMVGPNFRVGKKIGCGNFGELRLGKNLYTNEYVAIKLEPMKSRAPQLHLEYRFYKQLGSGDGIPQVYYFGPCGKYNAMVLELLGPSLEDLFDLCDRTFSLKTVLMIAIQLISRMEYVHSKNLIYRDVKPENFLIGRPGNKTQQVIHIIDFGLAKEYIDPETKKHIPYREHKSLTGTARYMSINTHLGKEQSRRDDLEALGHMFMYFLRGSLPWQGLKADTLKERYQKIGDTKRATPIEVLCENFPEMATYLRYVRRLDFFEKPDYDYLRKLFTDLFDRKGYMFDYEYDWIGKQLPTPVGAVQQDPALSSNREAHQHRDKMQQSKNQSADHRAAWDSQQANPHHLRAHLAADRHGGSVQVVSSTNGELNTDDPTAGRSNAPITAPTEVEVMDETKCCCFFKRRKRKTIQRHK

Sample 1
Target: MAP kinase-activated protein kinase 5 (MAPKAPK5, Homo sapiens, UniProt Q8IW41)
UniProt Q8IW41, sequence (whole entry, looked up): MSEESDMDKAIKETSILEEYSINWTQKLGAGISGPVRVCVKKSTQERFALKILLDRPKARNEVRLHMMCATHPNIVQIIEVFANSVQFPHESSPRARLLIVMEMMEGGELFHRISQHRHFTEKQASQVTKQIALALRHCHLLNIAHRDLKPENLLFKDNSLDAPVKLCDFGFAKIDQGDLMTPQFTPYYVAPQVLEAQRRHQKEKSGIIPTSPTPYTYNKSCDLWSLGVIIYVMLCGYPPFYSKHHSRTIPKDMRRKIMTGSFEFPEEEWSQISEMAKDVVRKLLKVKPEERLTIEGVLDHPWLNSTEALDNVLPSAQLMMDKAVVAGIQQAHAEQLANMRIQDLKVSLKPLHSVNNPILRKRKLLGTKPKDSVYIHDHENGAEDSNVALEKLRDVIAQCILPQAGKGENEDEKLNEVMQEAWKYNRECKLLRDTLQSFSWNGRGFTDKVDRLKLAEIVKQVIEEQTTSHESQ
Read-out: enzyme activity
Action: inhibitor
Concentration: 0.5 µM
Relative to: control
SMILES	remaining activity [%]
Cc1ccc(NC2=CC(=O)c3sc(C)nc3C2=O)cc1	108
CC(=O)c1ccc(N2CCOCC2)cc1O	96.9
Cc1cc(Nc2nc(-c3ccccc3)nc3ccccc23)n[nH]1	93.2
CCCC(=O)Oc1ccc2[nH]c(C(=O)c3cc4ccccc4[nH]3)cc2c1	101
COc1cc(Nc2c(C#N)cnc3cc(OCCCN4CCN(C)CC4)c(OC)cc23)c(Cl)cc1Cl	94.7
CSc1nc(-c2ccnc(N[C@@H](C)c3ccccc3)c2)c(-c2ccc(F)cc2)[nH]1 (racemic)	115
NC(=O)c1ccc(N(C(N)=O)c2c(F)cccc2F)nc1-c1ccc(F)cc1F	93.4
O=C1NC(=O)C(c2c[nH]c3ccccc23)=C1c1c[nH]c2ccccc12	119
Nc1nc(Nc2ccc(S(N)(=O)=O)cc2)nn1C(=O)c1c(F)cccc1F	80.3
Cc1cncc2cccc(S(=O)(=O)N3CCCN(C(=O)CN)C[C@@H]3C)c12	94.2
CC#CC(=O)Nc1cc2c(Nc3ccc(F)c(Cl)c3)ncnc2cn1	96.3
Nc1ncnc2c1cnn2-c1ccccc1	87.1
N#CC(=C(N)Sc1ccc(N)cc1)c1ccccc1C(F)(F)F	89.9
O=C1Cc2c([nH]c3ccc([N+](=O)[O-])cc23)-c2ccccc2N1	92.7
Oc1ccc(Nc2nc(-c3ccc(Cl)cc3)cs2)cc1	96.8
CCc1[nH]c(-c2ccc(OC)cc2)nc1-c1ccncc1	95.2
CC[n+]1c(/C=C/N(C)c2ccccc2)n(-c2ccccc2)c2ccc(-c3nc4ccccc4s3)cc21	96.8
COc1ccc(S(=O)(=O)N(CCO)c2ccccc2CN(C)CC=Cc2ccc(Cl)cc2)cc1	100
Fc1ccc(-c2nc3n(c2-c2ccncc2)CCS3)cc1	97.2
Nc1nccc(-c2c(-c3ccc(F)cc3)ncn2C2CCNCC2)n1	94

Sample 2
Target: Calcium/calmodulin-dependent protein kinase type II subunit alpha (CAMK2A, Homo sapiens, UniProt Q9UQM7)
UniProt Q9UQM7, sequence (whole entry, looked up): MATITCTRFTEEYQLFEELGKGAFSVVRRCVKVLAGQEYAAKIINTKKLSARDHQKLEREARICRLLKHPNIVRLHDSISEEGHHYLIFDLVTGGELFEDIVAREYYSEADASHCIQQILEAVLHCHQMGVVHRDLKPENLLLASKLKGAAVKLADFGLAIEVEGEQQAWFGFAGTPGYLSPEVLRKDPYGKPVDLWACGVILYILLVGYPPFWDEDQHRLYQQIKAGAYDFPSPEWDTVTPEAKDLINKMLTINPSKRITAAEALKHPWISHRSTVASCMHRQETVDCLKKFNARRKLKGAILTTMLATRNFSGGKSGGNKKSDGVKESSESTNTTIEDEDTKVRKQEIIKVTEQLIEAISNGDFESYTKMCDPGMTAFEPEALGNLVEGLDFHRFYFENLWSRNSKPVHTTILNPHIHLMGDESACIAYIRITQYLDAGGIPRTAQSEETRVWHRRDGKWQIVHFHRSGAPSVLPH
Read-out: enzyme activity
Action: inhibitor
Concentration: 10 µM
Compound	inhibition
CC(C)(CC(=O)O)C(=O)O	7%
COC(=O)C1=C(C)NC(C)=C(C(=O)O[C@H]2CCN(Cc3ccccc3)C2)[C@H]1c1cccc([N+](=O)[O-])c1	-8%
COc1cc(C(=O)O)cc(O)c1O	-3%
N[C@H](CO)Cc1cnc[nH]1	-21%
NC(=O)/C=C\C(=O)O	2%
CC[C@@H](CO)NCCN[C@@H](CC)CO	4%
CC(=O)O[C@H]([C@@H](O)C[C@@H](C)C1=C2C[C@H](O)[C@H]3[C@@]4(C)CCC(=O)C(C)(C)[C@@H]4CC[C@]3(C)[C@@]2(C)CC1)C(C)(C)O	11%
C[C@@H]1NC(=O)N[C@@H]1CCCCCC(=O)O	-6%
O=c1c(O[C@@H]2O[C@H](CO)[C@@H](O)[C@H](O)[C@H]2O[C@@H]2OC[C@@H](O)[C@H](O)[C@H]2O)c(-c2ccc(O)cc2)oc2cc(O)cc(O)c12	-47%
C=C(C)[C@@H](CC=C(C)C)C[C@@]12C[C@@H](CC=C(C)C)C(C)(C)[C@@](CC=C(C)C)(C(=O)C(=C(O)c3ccc(O)c(O)c3)C1=O)C2=O	-42%
COc1ccc(CCNCC(O)COc2cccc(C)c2)cc1OC (stereo not shown)	-3%

Sample 3
Host: mouse
Medium: microsomes or S9
Concentration: 2 µM
Time: 0.5 h
SMILES	remaining compound
CC1CN(C)C(c2ccccc2)C(C)C12NC(=O)N=C2O (stereo not shown)	58.1%
CC(C)c1nn(C)c(Cl)c1CNCc1ccccc1CO	7.27%
COC(=O)c1c(C(=O)OC)c(-c2ccc(N)cc2)n2c1CCC2	11.4%
CC(C)(C)OC(=O)c1ccc(-c2c[nH]c(-c3ccc(S(C)(=O)=O)c(F)c3)n2)cc1	70.6%
COc1nc2cc(C)ccc2cc1CN(C)C1(C)CCS(=O)(=O)C1 (stereo not shown)	8.07%
COc1ccc(-c2cc(=O)c3c(O)c(OC)c(OC)c(OC)c3o2)cc1OC	6.14%
COCc1nc2cc(-c3ccccc3CO)ccc2o1	0.565%
COc1ccc(S(=O)(=O)N(C)c2ccc(C(=O)Nc3ccccc3-c3ccccc3)cc2)cc1	0.389%
O=C(Cn1cnc2ccccc21)NCc1n[nH]c(=O)c2ccccc12	> 100%
CC1CN(C(=O)C(C)(C)C)CC(C)N1C(=O)[C@@H]1C[C@H](C)CC(=O)N1 (stereo partly shown)	> 100%
c1ccc(C2CC(c3cccs3)Nc3ncnn32)cc1 (stereo not shown)	1.65%
CCC(C)C1Nc2ccc(C(=O)NCC(C)CN(CC)CC)cc2NC1=O (stereo not shown)	47.8%
CC(C)N(c1cnn(C)c1)S(=O)(=O)c1cn(C(C)C)cn1	77.3%
CC1(COc2ccc(Br)cc2)CCC(C(C)(C)C)=NO1 (stereo not shown)	79.5%
CNCc1cccc(Br)c1OCCS(C)(=O)=O	70%
O=C(NC1CCS(=O)(=O)C1)c1ccc(Br)cc1 (stereo not shown)	97.2%
C=CCOc1ccccc1C1CC(O)=Nc2c1c(C)nn2-c1ccc(O)nn1 (stereo not shown)	22.1%
Cn1cc(C2(C)CN(Cc3nc(-c4cccs4)n[nH]3)CCO2)cn1 (stereo not shown)	60.2%
O=C(Nc1ccc(N2CCCS2(=O)=O)cc1)c1cc(C2CC2)nc2ccccc12	83.9%
CSc1ncc(Br)c(OC(C)C)n1	44%
O=C(c1ccc(=O)[nH]c1)N1CCN(c2ncc(Cl)cn2)CC1	91.4%
CCn1nccc1-c1cc(C(=O)O)c2ccc(C)c(C)c2n1	71.6%

Sample 4
Structure (SMILES): C[C@H](c1ccnc(Nc2nc3ccc(-c4cc(N(C)C)ncn4)cc3[nH]2)c1)N1CCN(C(=O)CC(F)(F)F)CC1
Method: competition with immobilised ligand
Concentration: 0.1 µM
target	read-out	remaining binding [%]
Testis-specific serine/threonine-protein kinase 1 (TSSK1B, Homo sapiens, UniProt Q9BXA7)	cell-free assay	100
Serine/threonine-protein kinase 35 (STK35, Homo sapiens, UniProt Q8TDR2)	cell-free assay	100
Insulin-like growth factor 1 receptor (IGF1R, Homo sapiens, UniProt P08069)	cell-free assay	98
Tyrosine-protein kinase TXK (TXK, Homo sapiens, UniProt P42681)	binding	96
Death-associated protein kinase 1 (DAPK1, Homo sapiens, UniProt P53355)	cell-free assay	93
Casein kinase II subunit alpha (CSNK2A1, Homo sapiens, UniProt P68400)	cell-free assay	100
Angiopoietin-1 receptor (TEK, Homo sapiens, UniProt Q02763)	cell-free assay	99
Ribosomal protein S6 kinase alpha-2, C-terminal kinase domain (RPS6KA2, Homo sapiens, UniProt Q15349)	cell-free assay	89
Ankyrin repeat and protein kinase domain-containing protein 1 (ANKK1, Homo sapiens, UniProt Q8NFD2)	cell-free assay	99
Hepatocyte growth factor receptor (MET, Homo sapiens, UniProt P08581, Y1235D)	cell-free assay	100
Epithelial discoidin domain-containing receptor 1 (DDR1, Homo sapiens, UniProt Q08345)	cell-free assay	100
Casein kinase I isoform gamma-3 (CSNK1G3, Homo sapiens, UniProt Q9Y6M4)	cell-free assay	100
Serine/threonine-protein kinase WNK4 (WNK4, Homo sapiens, UniProt Q96J92)	cell-free assay	80
eIF-2-alpha kinase GCN2, C-terminal kinase domain (EIF2AK4, Homo sapiens, UniProt Q9P2K8, S808G)	cell-free assay	58

A few entries again (sample 1):
SMILES	remaining activity [%]
N#CC(=C(N)Sc1ccc(N)cc1)c1ccccc1C(F)(F)F	89.9
COc1ccc(S(=O)(=O)N(CCO)c2ccccc2CN(C)CC=Cc2ccc(Cl)cc2)cc1	100
O=C1Cc2c([nH]c3ccc([N+](=O)[O-])cc23)-c2ccccc2N1	92.7
CC[n+]1c(/C=C/N(C)c2ccccc2)n(-c2ccccc2)c2ccc(-c3nc4ccccc4s3)cc21	96.8
Cc1cc(Nc2nc(-c3ccccc3)nc3ccccc23)n[nH]1	93.2
NC(=O)c1ccc(N(C(N)=O)c2c(F)cccc2F)nc1-c1ccc(F)cc1F	93.4
Cc1cncc2cccc(S(=O)(=O)N3CCCN(C(=O)CN)C[C@@H]3C)c12	94.2
